Measured values from different studies.
Compare with care: the assays were run in different laboratories. Values joined by “and” are separate records of one study, mostly repeats; a detail may differ. Numbers after ± are the reported error.

SMILES	tested on	assay	test system	conditions	how to read	measurement	value
CCCC[C@H](NC(=O)[C@@H](NC(=O)[C@H](CCC(=O)O)NC(=O)CNC(=O)[C@@H](NC(=O)[C@H](Cc1ccccc1)NC(=O)[C@H](C)NC(=O)[C@H](CCCCN)NC(=O)CNC(=O)[C@H](Cc1ccccc1)NC(=O)[C@H](CCCCN)NC(=O)[C@H](CCCCN)NC(=O)[C@H](C)NC(=O)[C@H](CO)NC(=O)[C@H](Cc1c[nH]cn1)NC(=O)[C@]1(C)CCCC=CCCC[C@](C)(NC(=O)CN)C(=O)NCC(=O)N[C@@H](CCCCN)C(=O)N[C@@H](Cc2ccccc2)C(=O)N1)C(C)C)[C@@H](C)CC)C(=O)N[C@@H](CC(N)=O)C(=O)N[C@@H](CO)C(N)=O		HPLC C18 column				retention time	12.2 min
CC(C)n1c(Nc2cccnc2)nc2cnc(Nc3ccc(N4CCN(C)CC4)cc3)nc21		measured: at least one TEAE	healthy male subjects	oral, 100 mg, study, added: gemfibrozil		subjects with adverse event	78.6%
COc1cccc(OC)c1-c1cc(C(=O)NC2(C(=O)O)C3CC4CC(C3)CC2C4)nn1-c1ccc(C(=O)N(C)CCCN(C)CCCN(C)C(=O)CN2CCN(CC(=O)[O-])CCN(CC(=O)[O-])CCN(CC(=O)[O-])CC2)cc1C(C)C.[177Lu+3] (centres unmarked)			mouse, HT-29 xenograft, heart	168 h post injection		tissue uptake	0.14 %ID/g
CC(C)(C)c1ccc(O)c(CN(Cc2cc(C(C)(C)C)ccc2O)C2CCC(NC(N)=O)CC2)c1 (centres unmarked)			human liver microsomes	2000 ng/mL, 3 months, -20 °C, long-term storage		recovery	101.9 ± 0.19%
CN(CC#N)C(=O)C[C@H](Nc1nc2ccccc2[nH]1)c1cccc(C(F)(F)F)c1			human	intravenous infusion, 5 mg/kg, 1 mg/mL formulation		terminal half-life	4.01 ± 0.16 h
C=CCN1CC(=O)N2[C@@H](Cc3ccc(O)cc3F)C(=O)N(Cc3cccc(N4CC(N5CCN(CC)CC5)C4)n3)C[C@@H]2N1C(=O)NCc1ccccc1			advanced solid tumour patients	oral, 45 mg twice daily, any grade, dose-escalation		treatment-related decreased appetite	0%
Cc1cc(C(=O)NC(C)(C)COc2cccc3c2C(N)=NS(=O)(=O)N3)cc(C)n1			Sprague-Dawley rat, female, plasma	oral, 30 mg/kg		dose-normalised AUC(0-last)	1.26 ng·h/mL/mg/kg
C=CC(=O)Nc1cc(Nc2nccc(-c3cn(C)c4ccccc34)n2)c(OC)cc1N(C)CCN(C)C		storage stability	human dried blood spot	30 d, -80 °C, HQC level		recovery	97.9%
CCO[C@H]1CCN(Cc2c(OC)cc(C)c3[nH]ccc23)[C@H](c2ccc(C(=O)O)cc2)C1			human severe hepatic impairment, plasma	oral, 200 mg single dose, geometric mean		total AUC(0-t)	57700 ng·h/mL
Cc1ccc([C@@H]2O[C@H](CO)[C@@H](O)[C@H](O)[C@H]2O)cc1Cc1ccc(-c2ccc(F)cc2)s1			human, maintenance hemodialysis patients	oral, 300 mg once daily, steady state, median		trough concentration	250 µg/L
CNCc1ccc(-c2[nH]c3cc(F)cc4c3c2CCNC4=O)cc1			human patients	oral, 600 mg twice daily, grade 2		neutropenia incidence	3.8%
O=C(N[C@H](Cc1c[nH]c2ccccc12)C(=O)Nc1ccncc1)c1ccc(-c2cc(C(F)(F)F)ccc2F)cc1F			Swiss Webster mouse, female, fat	oral, 50 mg/kg, 8 h, 20% HPβCD vehicle		concentration	650 nM
NC1(C(=O)N[C@@H](CCO)c2ccc(Cl)cc2)CCN(c2nc[nH]c3nccc2-3)CC1			metastatic CRPC patients	dose not given, any grade, treatment-related, all doses, added: enzalutamide 160 mg daily		incidence of Blindness	6.7%
COc1c(O[C@@H]2O[C@H](CO)[C@@H](O)[C@H](O)[C@H]2O)c(C)cc2c1C(=O)c1c(O)cccc1C2=O	HK-2 co-cultured with HepaRG	MTT		66.67 µM, 24 h	baseline: untreated control	cell viability	66.3 ± 8.24%
Cc1ccc([C@@H]2O[C@H](CO)[C@@H](O)[C@H](O)[C@H]2O)cc1Cc1ccc(-c2ccc(F)cc2)s1		measured: inorganic phosphorus	Japanese type 2 diabetes patients	200 mg, day 1, 24 h urine collection	baseline: baseline	urinary phosphate excretion change	-102 mg
CCO			human			serious adverse events	0%
C[C@@H](Nc1cc(F)cc(F)c1)c1cc(C(=O)N(C)C)cc2c(=O)cc(N3CCOCC3)oc12			patients with advanced solid tumours	oral, 120 mg twice daily continuous, monotherapy dose-expansion		share of patients with dose interruption	12.5%
COc1ncc(-c2nc3c(n2C(C)C)[C@H](c2ccc(Cl)cc2)N(c2cc(Cl)cn(C)c2=O)C3=O)c(OC)n1			human patients, plasma	oral, 50 mg, 0-24 h, high-dose arm, cycle 2 day 1		AUC(0-t) geometric mean	7180 ng·h/mL
CC(C)C[C@H](NC(=O)CNC(=O)c1cc(Cl)ccc1Cl)B(O)O		measured: Vomiting	human newly diagnosed multiple myeloma	oral, dose not given, maintenance, grade 3, onset cycle 17 or later		treatment-emergent adverse events	6%
CNC(=O)c1cccc(-c2ccc(O[C@H]3O[C@H](CO)[C@@H](O)[C@H](O)[C@@H]3O)c(C)c2)c1			male Sprague-Dawley rat, plasma	intravenous, 3 mg/kg, group mean		Vss	1.33 L/kg
CCC(C)n1ncn(-c2ccc(N3CCN(c4ccc(OCC5COC(Cn6cncn6)(c6ccc(Cl)cc6Cl)O5)cc4)CC3)cc2)c1=O (centres unmarked)		measured: oropharyngeal pain	healthy human participants	oral, 200 mg, compound alone cohort		adverse event incidence	0%
O=C(O)CCC(=O)O.[2H]C([2H])([2H])Oc1cc(C)c2[nH]ccc2c1CN1CC[C@@H](C2CC2)C[C@H]1c1ccc(C(=O)O)cc1			healthy Chinese subjects	50 mg, single ascending dose		TEAE decreased white cells	0%
CC1(C)CC[C@]2(NC(=O)C(C)(F)F)CC[C@]3(C)[C@H](C(=O)C=C4[C@@]5(C)C=C(C#N)C(=O)C(C)(C)[C@@H]5CC[C@]43C)[C@@H]2C1			human, plasma	oral, 150 mg, day 21 predose, mean		trough plasma concentration	33.5 ng/mL
C[C@@H](Oc1ccc(S(C)(=O)=O)cc1C(=O)N1C[C@@H]2C[C@]2(c2cc(C(F)(F)F)on2)C1)C(F)(F)F			human, urine	oral, 25 mg, mean	baseline: dose	urinary excretion	9.4%
CCCCCCCCCCCCCCCC(=O)N[C@@H](CCC(=O)NCCCC[C@@H]1NC(=O)[C@H]([C@@H](C)CC)NC(=O)[C@@H](NC(=O)[C@@H]2CCCN2C(=O)[C@H](Cc2ccccc2)NC(=O)[C@H](Cc2c[nH]cn2)NC(=O)[C@@H](NC(=O)[C@H](CC(=O)O)NC(=O)CC(C)C)[C@@H](C)O)CSSC[C@@H](C(=O)N[C@@H](CCCCN)C(N)=O)NC(=O)CNC(=O)[C@H](CCCCN)NC(=O)[C@H](CO)NC(=O)[C@H](CCCNC(=N)N)NC(=O)[C@@H]2CCCN2C(=O)[C@H](CCC(=O)O)NC(=O)[C@H](Cc2ccccc2)NC1=O)C(=O)O			healthy volunteers, plasma	subcutaneous, 10 mg single, lyophilised formulation		Vz/F	18.2 ± 7.54 L

SMILES	tested on	assay	test system	conditions	how to read	measurement	value
O=C(O)CCCOc1ccc([18F])cc1-c1cc(-c2ccccc2C(F)(F)F)n(-c2ccccc2)n1		gamma counting	male ddY mice, bone	intravenous, 2.1 MBq, 15 min		radioactivity uptake	0.94 ± 0.21 SUV
C[C@H]1CN(C(=O)CC#N)[C@]12CCN(c1ncnc3[nH]ccc13)C2			healthy Japanese men, urine	oral, 25 mg, single dose	baseline: dose	fraction excreted unchanged	80.9%
CC(=O)N[C@H]1CNC(=O)c2cc(cn2C)NC(=O)c2cc(cn2C)NC(=O)c2nc(cn2C)NC(=O)c2nc(cn2C)NC(=O)C[C@@H](NC(C)=O)CNC(=O)c2cc(cn2C)NC(=O)c2cc(cn2C)NC(=O)c2cc(cn2C)NC(=O)c2cc(cn2C)NC(=O)C1		dynamic light scattering	0.1% DMSO in PBS	25 °C		critical aggregation concentration	4 µM
COc1cc2c3c(n(CCCN4CCOCC4)c(=O)c2cc1OC)-c1cc2c(cc1C3=O)OCO2			beagle dog, male, plasma	intravenous infusion, 100 mg/m^2, 1 h infusion, vehicle 1		Vz	799 ± 115 L/m²
CC[C@H](C)[C@H](NC(=O)[C@H](CO)NC(=O)[C@H](CCCNC(=N)N)NC(C)=O)C(=O)N[C@H]1CSSC[C@@H](C(=O)N[C@H](C(N)=O)[C@@H](C)O)NC(=O)[C@H](CCCNC(=N)N)NC(=O)[C@H](Cc2c[nH]cn2)NC(=O)[C@H](C)NC(=O)CNC(=O)[C@H](Cc2c[nH]c3ccccc23)NC(=O)[C@H](CC(=O)O)NC(=O)[C@H](CCC(N)=O)NC(=O)[C@H](Cc2ccc(O)cc2)NC(=O)[C@H](C(C)C)NC1=O		isocratic RP-HPLC, C18	32% acetonitrile, phosphate pH 7.4, 1% TFA	25 °C		retention factor	0.31 ± 0.03
N#Cc1ccc2c(c1)[C@H]1CCCN(C(=O)c3ccc4[nH]cnc4c3)[C@H]1C2			human, male	40 mg, day 15		androstenedione level	8 nmol/L
CC(C)(C(=O)N1CCOc2c(C#N)cncc2C1)C(F)F		measured: gingival bleeding	human, both sexes	oral, 20 mg once daily, 14 days, multiple ascending dose		subjects with TEAE	0%
COc1ccc2c(c1)CN(C(=O)CCN1CCC(Cc3ccccc3)CC1)CC[S@@+]2[O-]		telemetry	conscious dog	intravenous, 2 mg/kg, 2 h		heart rate	77 ± 12 beats/min
NC(=O)N1c2ccccc2C=Cc2ccccc21			healthy human subjects, plasma	oral, dose not given, 12 h, twice daily, with glecaprevir and pibrentasvir		trough concentration	6070 µg/L
CN1C(=O)[C@@H](NC(=O)c2nnc(Cc3ccccc3)[nH]2)COc2cccnc21		phase I multiple ascending dose	human, male and female	oral, 600 mg, 14 days		participants with any AE of special interest	0%
NC(=O)N1c2ccccc2C=Cc2ccccc21		measured: general and administration site (SOC)	human male	oral, dose not given, AEs, treatment-related, on drug, CTCAE		adverse events incidence	27%
CCc1cc(C(=O)NC)c2nccc(N3CCc4c(cc(Cn5ccnc5)cc4-c4cn(C)nc4C(F)(F)F)C3=O)c2c1			Sprague Dawley rats	oral, 100 mg/kg once daily, 7 days	baseline: vehicle	serum MCH change	2.03%
CCCCOc1ccc([C@H]2CC[C@H](CCC)CC2)c(F)c1F			human mother-newborn pairs, cord serum	male fetuses		median concentration	7.61 ng/mL
O=C(Nc1nc2cccc(-c3ccc(CN4CCS(=O)(=O)CC4)cc3)n2n1)C1CC1		measured: non-cardiac chest pain	human rheumatoid arthritis patients	oral, 30 mg once daily, 4 weeks, regardless of relatedness		treatment-emergent adverse events	0%
C=C1C[C@@H]2[C@H](CC[C@]3(C)C(=O)CC[C@@H]23)[C@@]2(C)C=CC(=O)C=C12			postmenopausal women, serum	oral, 25 mg daily, 1 year, UGT2B17 and GSTA1 genotypes		share of modified total metabolites	25%
O=C1c2cccc(O)c2C(=O)c2c(O)cc(CO)cc21	HK-2 co-cultured with HepaRG	MTT		33.33 µM, 24 h	baseline: untreated control	viability	105 ± 11.6%
CCc1c(-c2ccccc2)c(-c2ccccc2)nn1-c1ccccc1-c1cccc(OCC(=O)O)c1			female Sprague-Dawley rat, uterus homogenate	oral, 10 mg/kg, 4 h		concentration	305 ng/mL
O=C(COc1ccc(Cl)cc1)NC12CC(c3nnc([C@H]4C[C@@H](OC(F)(F)F)C4)o3)(C1)C2			human both sexes	oral, 260 mg once daily, 14 days		participants with TEAE	85.7%
Cc1c(-c2ccc(N3CCc4cccc(C(=O)Nc5nc6ccccc6s5)c4C3)nc2C(=O)O)cnn1CC12CC3(C)CC(C)(C1)CC(OCCNCC[C@H](O)CO)(C3)C2			anaesthetized male beagle dog	iv infusion, 0.1 mg/kg/min, 5 min		plasma concentration	386 ng/mL
O=C(c1cccnc1-c1ccncc1)N1CCC(O)(Cc2ccccc2)CC1			healthy Japanese adults, plasma	oral, 200 mg twice daily, day 14		Vz/F	1090 L
C[C@@H](N)C1CCN(S(=O)(=O)c2cccc3cnccc23)CC1			healthy volunteers	250 mg, fasted		participants with serious TEAEs	0%
CCCCC[C@H](O)CC[C@@H]1[C@H]2Cc3cccc(OCC(=O)O)c3C[C@H]2C[C@H]1O		LC-MS/MS	Japanese PAH patients, plasma	inhaled, 54 µg, no background PAH therapy		geometric mean AUC(0-last)	0.41 ng·h/mL
N#C[C@@]1(c2ccc3c(N)ncnn23)O[C@H](CO)[C@@H](O)[C@H]1O		plasma protein binding	dog plasma	10 µM		bound fraction	0.0684
O=C(CCC(C(=O)[O-])N1CCN(C(CCC(=O)NCC(O)CO)C(=O)[O-])Cc2cccc(n2)CN(C(CCC(=O)NCC(O)CO)C(=O)[O-])CC1)NCC(O)CO.[Gd+3] (centres unmarked)		LA-ICP-MS	rat, femur subcortical bone	0.6 mmol Gd/kg, 1 week		maximum Gd concentration	~80 nmol/g and 80 nmol/g
COc1cc(N2CCC3(CCN(C)CC3)CC2)ccc1Nc1ncc(Cl)c(Nc2ccccc2P(C)(C)=O)n1		population PK model	human	oral, base structural model, unit not given	baseline: fasting	food effect on Ka	0.588

For quick reference, copied from above:
SMILES	tested on	assay	test system	conditions	how to read	measurement	value
O=C(Nc1nc2cccc(-c3ccc(CN4CCS(=O)(=O)CC4)cc3)n2n1)C1CC1		measured: non-cardiac chest pain	human rheumatoid arthritis patients	oral, 30 mg once daily, 4 weeks, regardless of relatedness		treatment-emergent adverse events	0%
Cc1c(-c2ccc(N3CCc4cccc(C(=O)Nc5nc6ccccc6s5)c4C3)nc2C(=O)O)cnn1CC12CC3(C)CC(C)(C1)CC(OCCNCC[C@H](O)CO)(C3)C2			anaesthetized male beagle dog	iv infusion, 0.1 mg/kg/min, 5 min		plasma concentration	386 ng/mL
Cc1ccc([C@@H]2O[C@H](CO)[C@@H](O)[C@H](O)[C@H]2O)cc1Cc1ccc(-c2ccc(F)cc2)s1			human, maintenance hemodialysis patients	oral, 300 mg once daily, steady state, median		trough concentration	250 µg/L
CC1(C)CC[C@]2(NC(=O)C(C)(F)F)CC[C@]3(C)[C@H](C(=O)C=C4[C@@]5(C)C=C(C#N)C(=O)C(C)(C)[C@@H]5CC[C@]43C)[C@@H]2C1			human, plasma	oral, 150 mg, day 21 predose, mean		trough plasma concentration	33.5 ng/mL
